Measured values collected from several papers.
Each numbered part is a random draw from the data of one study; scales do not carry over between parts. Substitutions count along the parent as printed.

Block 1
Target: CCNB2, cyclin fold, Cln2 fusion (human)
Technique: yeast growth competition, sequencing
Matrix: yeast
Setting: weak parent motif
Baseline: not given
Direction: higher = stronger binding
Starting sequence: CENPC docking peptide (human); VKTKKRLNFDDKV
Variant | normalised enrichment score
K2A | 0.464
D10A | -0.331
T3A | 0.212
N8A | 0.664
K5A L7A | 0.343
F9A | -0.0502
K5R | 1.29
K12A | 0.568
D11A | 0.722
F9L | 0.0237

Block 2
Target: UBE2N UBC core domain (UniProt P61088)
Technique: yeast two-hybrid
Matrix: yeast
Setting: mostly zero background
Baseline: not given
Direction: higher = stronger interaction
B1: RING1 RING domain (UniProt Q06587); chain SPRSLHSELMCPICLDMLKNTMTTKECLHRFCSDCIVTALRSGNKECPTCRKKLVSKRSLR
B2: RNF103 RING domain (UniProt O00237); chain WPADMLHCTECVVCLENFENGCLLMGLPCGHVFHQNCIVMWLAGGRHCCPVCRWPSYKKKQPY
B3: ZNRF4 RING domain (UniProt Q8WWF5); chain VRTFTWHNDLCAICLDEYEEGDQLKILPCSHTYHCKCIDPWFSQAPRRSCPVCKQSVAATEDSF
B4: RNF186 RING domain (UniProt Q9NXI6); chain HSGSTECDLECLVCREPYSCPRLPKLLACQHAFCAICLKLLLCVQDNTWSITCPLCRKVTAVPGGLI
B5: TRIM11 RING domain (UniProt Q96F44); chain LSTNLQEEATCAICLDYFTDPVMTDCGHNFCRECIRRCWGQPEGPYACPECRELSPQRNLRP
B6: MARCHF1 RING domain (UniProt Q8TCQ1); chain TAPRSQSRLSVCPSTQDICRICHCEGDEESPLITPCRCTGTLRFVHQSCLHQWIKSSDTRCCELCKYDFIMETKLKPLRKWE
B7: RUFY1 RING domain (UniProt Q96T51); chain QALKGHAWLKDDEATHCRQCEKEFSISRRKHHCRNCGHIFCNTCSSNELALPSYPKPVRVCDSCHTLLLQRCSSTAS
B8: TRIM41 RING domain (UniProt Q8WV44); chain PVQTLQEEAVCAICLDYFTDPVSIGCGHNFCRVCVTQLWGGEDEEDRDELDREEEEEDGEEE
B9: CNOT4 RING domain (UniProt O95628); chain MSRSPDAKEDPVECPLCMEPLEIDDINFFPCTCGYQICRFCWHRIRTDENGLCPACRKPYPED
Target sequence (chain): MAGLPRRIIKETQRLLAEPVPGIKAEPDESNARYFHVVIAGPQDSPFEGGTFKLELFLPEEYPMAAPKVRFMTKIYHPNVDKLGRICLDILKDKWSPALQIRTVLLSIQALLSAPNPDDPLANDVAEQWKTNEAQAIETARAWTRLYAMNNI
Sequence | lacZ reporter activity
B1 (RING1 RING domain) | 0
B2 (RNF103 RING domain) | 16800
B3 (ZNRF4 RING domain) | 9660
B4 (RNF186 RING domain) | 0
B5 (TRIM11 RING domain) | 0
LVKDFNPYITCYICKGYLIKPTTVTECLHTFCKTCIVQHFEDSNDCPRCGNQVHETNPLE (PCGF5 RING domain (UniProt Q86SE9)) | 0
B6 (MARCHF1 RING domain) | 0
B7 (RUFY1 RING domain) | 0
LEALSSDFLACKICLEQLRAPKTLPCLHTYCQDCLAQLADGGRVRCPECRETVPVPPEGV (TRIM56 RING domain (UniProt Q9BRZ2)) | 0
ASEEEFQFLRCQQCQAEAKCPKLLPCLHTLCSGCLEASGMQCPICQAPWPLGADTP (PML RING domain (UniProt P29590)) | 0
B8 (TRIM41 RING domain) | 0
B9 (CNOT4 RING domain) | 10300

Block 3
Target: ABI1, truncated, D143A, DHFR fusion (Arabidopsis thaliana)
Technique: DHFR PCA, deep sequencing
Matrix: yeast
Setting: methotrexate growth selection, single substitutions
Together with: (+)-ABA 0.11 µM
Baseline: wild-type fitted maximum
Direction: higher = stronger binding
Starting sequence: PYL1, truncated, DHFR fusion (Arabidopsis thaliana); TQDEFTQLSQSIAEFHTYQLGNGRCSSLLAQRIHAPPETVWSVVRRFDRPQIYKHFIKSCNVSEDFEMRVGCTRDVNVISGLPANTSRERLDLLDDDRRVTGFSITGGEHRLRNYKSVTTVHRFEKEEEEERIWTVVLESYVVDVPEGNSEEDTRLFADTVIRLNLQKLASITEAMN; partner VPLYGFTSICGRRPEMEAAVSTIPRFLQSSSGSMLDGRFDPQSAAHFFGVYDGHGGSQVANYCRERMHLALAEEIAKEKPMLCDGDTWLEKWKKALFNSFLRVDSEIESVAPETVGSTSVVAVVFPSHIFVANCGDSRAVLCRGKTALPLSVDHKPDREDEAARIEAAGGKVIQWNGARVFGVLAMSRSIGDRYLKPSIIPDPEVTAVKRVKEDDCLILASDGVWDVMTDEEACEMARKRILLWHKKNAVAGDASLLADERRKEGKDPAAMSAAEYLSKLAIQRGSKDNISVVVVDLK
Variant | relative binding score [%]
D96A | -5.97
I79H | 25.4
R113F | -1.16
R46E | -1.82
W134A | 6.14
E127W | 22.3
T119I | 4.7
T173S | 25.9
I172W | -4.49
E130R | 35.7
S117E | -2.92
D48F | 13.7
T6P | 56.5
R49W | -2.38
L169K | -5.41
R24A | 9.67
Q167Y | -0.445
I79N | 7.75
T6E | 52.7
I33D | -0.855
I52S | 17.4
V43F | 5.02
I33A | 3.11
S26C | 22.8
I105T | -9.35

Block 4
Target: Interferon regulatory factor 7, full length, phosphomimetic (IRF7, Homo sapiens, UniProt Q92985, residues 1-503, S101K/S471D/S472D/S475D/S476D/S477D/S483D/S484D/S487D)
Technique: protein-binding microarray
Molecule type: double-stranded DNA, one strand shown
Matrix: in vitro
Concentration: 250 nM
Setting: 60-bp whole probe
Together with: salmon DNA 0.4 mg/ml
Baseline: random background probes
Direction: higher = stronger binding
Constant ends, left off below: GCCTAGCAC … GTCTTGATTCGCTTGACGCTGCTG
Target sequence (chain): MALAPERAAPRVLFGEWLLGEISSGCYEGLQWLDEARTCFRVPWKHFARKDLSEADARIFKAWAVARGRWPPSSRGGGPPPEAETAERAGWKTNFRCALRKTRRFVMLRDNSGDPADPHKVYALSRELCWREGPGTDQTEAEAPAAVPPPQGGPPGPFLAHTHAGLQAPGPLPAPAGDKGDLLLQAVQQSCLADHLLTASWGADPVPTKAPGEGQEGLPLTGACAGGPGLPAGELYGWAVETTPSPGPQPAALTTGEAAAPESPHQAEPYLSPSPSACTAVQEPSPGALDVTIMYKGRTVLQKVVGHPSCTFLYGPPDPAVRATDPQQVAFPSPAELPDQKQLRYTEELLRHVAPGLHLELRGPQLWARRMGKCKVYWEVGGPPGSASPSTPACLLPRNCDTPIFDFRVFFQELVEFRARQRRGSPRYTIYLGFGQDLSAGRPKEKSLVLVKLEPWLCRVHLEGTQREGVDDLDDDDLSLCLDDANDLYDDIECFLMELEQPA
Strand | log fluorescence
TCATCTCTGCTTCTGTAACTGTGCTAG | 0.545 z-score
TCAAAGTTCATGTTCAAACTGTGCTAG | 0.0238 z-score
TTAGCTCTCGGTTTCGGTTAGTGCTAG | 7.85 z-score
TTAGATTTCGGTATCGATTAGTGCTAG | 2.91 z-score
TTAGAACTGAGTCTGGATTAGTGCTAG | -0.368 z-score
TTACGTTTCGGTTTCGGTTAGTGCTAG | 12.8 z-score
GTCGGTTTCCTTATCCTGACGTGCTAG | 4.38 z-score
TTAGGTACCCTACTGCTTTAGTGCTAG | -0.114 z-score
GACGATCTCAGTCTCGATACGTGCTAG | 0.779 z-score
GACGGAATCGGGACTGGGGACGTGCTA | -0.00636 z-score
GCCTTGTTCGTCGCTCCGCTGTGCTAG | 0.819 z-score
GACGGTCTCGGTATCGGCACGTGCTAG | 1.97 z-score
TTAGATTTCGGGTTTCAATTAGTGCTA | 2.76 z-score
GACGAGTTCAGTTTCGAGACGTGCTAG | 4.39 z-score
CATCCAGCAGAGAGCCTCAGGTGCTAG | -0.343 z-score
TTAAATTTCAGTTTCGATTAGTGCTAG | 9.3 z-score
GACGCTTTCGACTTTCGGGACGTGCTA | 2.38 z-score
TGAGGTTCCCTTTTCCTTTAGTGCTAG | 3.01 z-score
TCATATACACACTATAGTACTGTGCTA | 0.659 z-score
TCAGACCTCGTCTCTATCACTGTGCTA | -0.343 z-score
TTAGGTATCGCCTTTCGGTTAGTGCTA | 1.2 z-score
TTAGGTTTCCCTTTCCTTTAGTGCTAG | 5.93 z-score

Repeated from above (block 3):
Variant | relative binding score [%]
D48F | 13.7
D96A | -5.97
S26C | 22.8
L169K | -5.41
S117E | -2.92
I79N | 7.75
T6P | 56.5
R24A | 9.67
